Measured values pooled from the literature.
A part holds a random share of what one study measured.

Sample 1 — technique: protein binding microarray; form: double-stranded DNA, one strand shown; medium: in vitro; concentration: not given; relative to: not given; reading: higher = stronger binding
Target: Histone acetyltransferase KAT6A, both winged helices, GST fusion (KAT6A, Homo sapiens, UniProt Q92794, residues 1-181)
Setting: 8-mer, flanks averaged, mean of 2 arrays, mostly near background
Construct (chain): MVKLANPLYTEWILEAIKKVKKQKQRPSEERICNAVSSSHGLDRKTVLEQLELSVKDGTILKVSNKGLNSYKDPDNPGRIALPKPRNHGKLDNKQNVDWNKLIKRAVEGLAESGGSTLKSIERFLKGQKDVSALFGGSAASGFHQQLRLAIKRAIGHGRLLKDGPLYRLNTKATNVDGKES
Sequence | E-score
AAACAGGT | -0.128
AGAGGTCG | -0.0227
CCTGATCA | -0.211
ACGCCGAC | 0.243
ACAAGTAG | -0.258

Sample 2 — technique: RNA Bind-n-Seq; form: RNA; medium: in vitro; concentration: 200 nM; setting: whole 134-nt RNA, ends assumed; added: 150 mM KCl; relative to: input library; reading: higher = stronger binding
Target: Ras GTPase-activating protein-binding protein 1, full length (G3BP1, Homo sapiens, UniProt Q13283)
Sequence of UniProt Q13283 (whole entry, looked up): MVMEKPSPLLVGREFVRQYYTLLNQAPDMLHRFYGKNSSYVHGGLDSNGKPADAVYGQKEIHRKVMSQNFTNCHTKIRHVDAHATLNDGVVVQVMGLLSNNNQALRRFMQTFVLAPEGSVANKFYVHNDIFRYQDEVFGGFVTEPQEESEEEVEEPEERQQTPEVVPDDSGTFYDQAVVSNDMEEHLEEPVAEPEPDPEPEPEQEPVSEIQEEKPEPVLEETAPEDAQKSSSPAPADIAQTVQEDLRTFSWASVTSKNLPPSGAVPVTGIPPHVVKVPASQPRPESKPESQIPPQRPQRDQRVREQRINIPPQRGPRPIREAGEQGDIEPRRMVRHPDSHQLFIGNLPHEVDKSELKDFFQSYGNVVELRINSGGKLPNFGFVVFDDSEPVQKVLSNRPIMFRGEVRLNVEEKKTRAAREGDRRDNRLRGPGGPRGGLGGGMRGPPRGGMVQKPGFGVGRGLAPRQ
Sequence | log2 enrichment
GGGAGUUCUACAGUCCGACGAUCAGUCCUGUGCUACACAUCGUAUGUACCGAAUCAAAUUUAAACCCCCAAAUUUUUAAAAAAGUAUUAUGUUACGCCGUUCGGAUCUGCACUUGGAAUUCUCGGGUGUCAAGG | -0.399
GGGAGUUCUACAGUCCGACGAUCCACAGACAACACGCACCCACGCAGACACAGAGGGAAGGGGUUGGGAUGGGGACAGGGUGCACAGCAGGGCGGGGUAGGACCCCAGCCCCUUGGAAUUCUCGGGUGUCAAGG | 1.99
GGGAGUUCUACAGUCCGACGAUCCACAGACAACACGCAAAAACACAGACACAGAGGGAAGGGGUUGGGAUGGGGACAGGGUGCACAGCAGGGCGGGGUAGGACCCCAGCCCCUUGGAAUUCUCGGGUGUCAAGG | 1.6
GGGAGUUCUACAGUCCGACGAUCAACACUCAAACCACCAUCAAGCUUUUCCAGGAAUGCUGUCCUCAUUCCACUGACAGAGUUGUUCUUAUUGGAGGAAAACCCGAUAGGGUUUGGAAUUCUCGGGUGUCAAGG | -0.0262
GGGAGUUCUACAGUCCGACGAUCCUGUGCUACACAUCGUAUGUACCGAAUCGGGGUUUUUUUGGGUUUUUUUGGUUUUUUUGGGGAAAGUAUUAUGUUACGCCGUUCGGAUCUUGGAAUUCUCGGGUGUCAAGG | -0.946

Sample 3 — technique: RNAcompete; form: RNA; medium: in vitro; concentration: 20 nM; setting: 7-mer, probes averaged, single round; relative to: mean of 7-mers; reading: higher = stronger binding
Target: PABPC1L2, full length, GST fusion (mouse, UniProt A0ABA7IW68)
Construct (chain): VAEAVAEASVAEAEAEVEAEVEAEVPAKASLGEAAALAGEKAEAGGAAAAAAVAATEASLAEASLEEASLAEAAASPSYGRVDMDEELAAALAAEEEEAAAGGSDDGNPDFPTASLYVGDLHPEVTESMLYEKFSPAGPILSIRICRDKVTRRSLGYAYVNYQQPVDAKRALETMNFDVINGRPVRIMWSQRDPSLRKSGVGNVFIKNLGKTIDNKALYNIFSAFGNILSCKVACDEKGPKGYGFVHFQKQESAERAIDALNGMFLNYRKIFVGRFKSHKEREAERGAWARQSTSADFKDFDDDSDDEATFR
Sequence | 7-mer Z-score
AAUGAGG | 0.508
UGGAAGU | 0.0225
UCUCGCG | -0.454
UUUAGAC | -0.0337
GUCUGCA | -0.309

Other studies, line by line
Molecule | target | test | system | conditions | how to read | endpoint | value
PhoQ, residues 284 288 289 292 302 303 QWGLFV | PhoP, residues 12 14 15 18 19 AQCLL (Escherichia coli, UniProt P23836) | Sort-seq, refers to: YFP reporter | E. coli | PhoQ-PhoP variant library, added: 10 µM Mg2+ | relative to: high Mg2+ state, higher = stronger signaling | fold induction | 2.53
